Results gathered from unrelated publications.
Compare with care: the assays were run in different laboratories. Numbers after ± are the reported error.

Compound	system	setting	tissue uptake
CC(C)C[C@H](NC(=O)[C@H](Cc1ccc(O)cc1)NC(=O)[C@@H](CCCNC(=N)N)NC(=O)[C@@H](CO)NC(=O)[C@H](Cc1ccccc1)NC(=O)[C@H](CC1CCCCC1)NC(=O)[C@H](CC(=O)O)NC(=O)CN1CCCN2CCN(CCCN(CC(=O)O)CC2)CC1)C(=O)N[C@@H](Cc1c[nH]c2ccccc12)C(=O)N[C@@H](CO)C(=O)O [copper-64 labelled]	female NMRI nude mice, bone	22 h p.i.	0.8 ± 0.3 %ID/g
CCCC[C@H](NC(=O)CNC(=O)CNC(=O)CN1CCN(CC(=O)O)CCN(CC(=O)O)CCN(CC(=O)O)CC1)C(=O)N[C@H]1CC(=O)NCCCC[C@@H](C(N)=O)NC(=O)[C@H](Cc2c[nH]c3ccccc23)NC(=O)[C@H](CCCNC(=N)N)NC(=O)[C@@H](Cc2ccccc2)NC(=O)[C@H](Cc2c[nH]cn2)NC1=O [lutetium-177 labelled]	C57 mouse, female, spleen	intravenous, 0.037 MBq, 24 h	0.24 ± 0.1 %ID/g
N=C(N)NCCC[C@@H]1NC(=O)[C@H](CCCCNC(=O)CCOCCOCCOCCOCCNC(=O)CC[C@H](NC(=O)CCOCCOCCOCCOCCNC(=O)CN2CCN(CC(=O)O)CCN(CC(=O)O)CCN(CC(=O)O)CC2)C(=O)NCCOCCOCCOCCOCCC(=O)NCCCC[C@@H]2NC(=O)[C@@H](Cc3ccccc3)NC(=O)[C@H](CC(=O)O)NC(=O)CNC(=O)[C@H](CCCNC(=N)N)NC2=O)NC(=O)[C@@H](Cc2ccccc2)NC(=O)[C@H](CC(=O)O)NC(=O)CNC1=O [copper-64 labelled]	athymic nude mouse, female, whole blood	iv, 4 h	0.15 ± 0.07 %ID/g
CC(C)C[C@H](NC(=O)CN1CCN(CC(=O)O)CCN(CC(=O)O)CC1)C(=O)N[C@@H](CC(C)C)C(=O)N[C@@H](CC(C)C)C(=O)N[C@@H](CC(C)C)C(=O)N[C@@H](CCCNC(=N)N)C(=O)N[C@H](C(=O)N[C@@H](CCCCN)C(=O)N[C@@H](CCCNC(=N)N)C(N)=O)C(C)C [copper-64 labelled]	CD1 mouse, male, pancreas	intravenous, 15 min	3.3 ± 0.1 %ID/g
N=C(N)NCCC[C@@H]1NC(=O)[C@H](CCCCNC(=O)CC[C@H](NC(=O)CC[C@H](NC(=O)CN2CCN(CC(=O)O)CCN(CC(=O)O)CCN(CC(=O)O)CC2)C(=O)N[C@@H](CCC(=O)NCCCC[C@@H]2NC(=O)[C@@H](Cc3ccccc3)NC(=O)[C@H](CC(=O)O)NC(=O)CNC(=O)[C@H](CCCNC(=N)N)NC2=O)C(=O)NCCCC[C@@H]2NC(=O)[C@@H](Cc3ccccc3)NC(=O)[C@H](CC(=O)O)NC(=O)CNC(=O)[C@H](CCCNC(=N)N)NC2=O)C(=O)NCCCC[C@@H]2NC(=O)[C@@H](Cc3ccccc3)NC(=O)[C@H](CC(=O)O)NC(=O)CNC(=O)[C@H](CCCNC(=N)N)NC2=O)NC(=O)[C@@H](Cc2ccccc2)NC(=O)[C@H](CC(=O)O)NC(=O)CNC1=O [indium-111 labelled]	female athymic nu/nu mice, brain	intravenous, 24 h	0.07 ± 0.02 %ID/g
CCCC[C@H](NC(=O)CCCCCCCNC(=O)CN1CCN(CC(=O)O)CCN(CC(=O)O)CC1)C(=O)N[C@H]1CC(=O)NCCCC[C@@H](C(N)=O)NC(=O)[C@H](Cc2c[nH]c3ccccc23)NC(=O)[C@H](CCCNC(=N)N)NC(=O)[C@@H](Cc2ccccc2)NC(=O)[C@H](Cc2c[nH]cn2)NC1=O [copper-64 labelled]	C57 mice, heart	intravenous, 0.37 MBq, 0.5 h	1.49 ± 0.33 %ID/g
Cc1cc(O)cc(C)c1C[C@H](NC(=O)[C@@H]1CCCN1C(=O)[C@H](CCCNC(=N)N)NC(=O)[C@H](CCCNC(=N)N)N(C)C(=O)[C@@H]1CCCN1C(=O)[C@H](CCCCN)NC(=O)[C@@H](CC(C)C)NC(=O)[C@@H](CC(C)C)NC(=O)[C@@H](CC(C)C)NC(=O)[C@@H](CC(C)C)NC(=O)CN1CCN(CC(=O)O)CCN(CC(=O)O)CCN(CC(=O)O)CC1)C(=O)N[C@H](C(=O)N[C@@H](CC(C)C)C(=O)O)C(C)(C)C [lutetium-177 labelled]	CF-1 mouse, small intestine	iv, 370 kBq, 1 h	4.46 ± 0.58 %ID/g
N=C(N)NCCC[C@@H]1NC(=O)[C@H](CCCCNC(=O)CNC(=O)CNC(=O)CNC(=O)CC[C@H](NC(=O)CNC(=O)CNC(=O)CNC(=O)CN2CCN(CC(=O)O)CCN(CC(=O)O)CCN(CC(=O)O)CC2)C(=O)NCC(=O)NCC(=O)NCC(=O)NCCCC[C@@H]2NC(=O)[C@@H](Cc3ccccc3)NC(=O)[C@H](CC(=O)O)NC(=O)CNC(=O)[C@H](CCCNC(=N)N)NC2=O)NC(=O)[C@@H](Cc2ccccc2)NC(=O)[C@H](CC(=O)O)NC(=O)CNC1=O [indium-111 labelled]	female athymic nu/nu mice, lungs	intravenous, 0.5 h	3.13 ± 0.47 %ID/g
CSCC[C@H](NC(=O)[C@H](CC(C)C)NC(=O)[C@H](Cc1c[nH]cn1)NC(=O)CNC(=O)[C@@H](NC(=O)[C@H](C)NC(=O)[C@H](Cc1c[nH]c2ccccc12)NC(=O)[C@H](CCC(N)=O)NC(=O)CCOCCOCCOCCOCCNC(=O)CN1CCN(CC(=O)O)CCN(CC(=O)O)CCN(CC(=O)O)CC1)C(C)C)C(N)=O [indium-111 labelled]	Swiss nu/nu mouse, male, PC-3 tumour xenograft, colon	intravenous, 10 pmol, 1 h	2.9 ± 1.5 %ID/g
CCCC[C@H](NC(=O)COCCOCCNC(=O)CN1CCN(CC(=O)O)CCN(CC(=O)O)CC1)C(=O)N[C@H]1CC(=O)NCCCC[C@@H](C(N)=O)NC(=O)[C@H](Cc2c[nH]c3ccccc23)NC(=O)[C@H](CCCNC(=N)N)NC(=O)[C@@H](Cc2ccccc2)NC(=O)[C@H](Cc2c[nH]cn2)NC1=O [copper-64 labelled]	C57 mice, brain	intravenous, 0.37 MBq, 4 h	0.02 %ID/g
N=C(N)NCCC[C@@H]1NC(=O)[C@H](CCCCNC(=O)CNC(=O)CNC(=O)CNC(=O)CC[C@H](NC(=O)CNC(=O)CNC(=O)CNC(=O)CC[C@H](NC(=O)CN2CCN(CC(=O)O)CCN(CC(=O)O)CCN(CC(=O)O)CC2)C(=O)NCC(=O)NCC(=O)NCC(=O)N[C@@H](CCC(=O)NCC(=O)NCC(=O)NCC(=O)NCCCC[C@@H]2NC(=O)[C@@H](Cc3ccccc3)NC(=O)[C@H](CC(=O)O)NC(=O)CNC(=O)[C@H](CCCNC(=N)N)NC2=O)C(=O)NCC(=O)NCC(=O)NCC(=O)NCCCC[C@@H]2NC(=O)[C@@H](Cc3ccccc3)NC(=O)[C@H](CC(=O)O)NC(=O)CNC(=O)[C@H](CCCNC(=N)N)NC2=O)C(=O)NCC(=O)NCC(=O)NCC(=O)NCCCC[C@@H]2NC(=O)[C@@H](Cc3ccccc3)NC(=O)[C@H](CC(=O)O)NC(=O)CNC(=O)[C@H](CCCNC(=N)N)NC2=O)NC(=O)[C@@H](Cc2ccccc2)NC(=O)[C@H](CC(=O)O)NC(=O)CNC1=O [indium-111 labelled]	female athymic nu/nu mice, muscle	intravenous, 111 kBq, 4 h	0.8 ± 0.11 %ID/g

Some of these lines once more:
Compound	system	setting	tissue uptake
CC(C)C[C@H](NC(=O)[C@H](Cc1ccc(O)cc1)NC(=O)[C@@H](CCCNC(=N)N)NC(=O)[C@@H](CO)NC(=O)[C@H](Cc1ccccc1)NC(=O)[C@H](CC1CCCCC1)NC(=O)[C@H](CC(=O)O)NC(=O)CN1CCCN2CCN(CCCN(CC(=O)O)CC2)CC1)C(=O)N[C@@H](Cc1c[nH]c2ccccc12)C(=O)N[C@@H](CO)C(=O)O [copper-64 labelled]	female NMRI nude mice, bone	22 h p.i.	0.8 ± 0.3 %ID/g
N=C(N)NCCC[C@@H]1NC(=O)[C@H](CCCCNC(=O)CCOCCOCCOCCOCCNC(=O)CC[C@H](NC(=O)CCOCCOCCOCCOCCNC(=O)CN2CCN(CC(=O)O)CCN(CC(=O)O)CCN(CC(=O)O)CC2)C(=O)NCCOCCOCCOCCOCCC(=O)NCCCC[C@@H]2NC(=O)[C@@H](Cc3ccccc3)NC(=O)[C@H](CC(=O)O)NC(=O)CNC(=O)[C@H](CCCNC(=N)N)NC2=O)NC(=O)[C@@H](Cc2ccccc2)NC(=O)[C@H](CC(=O)O)NC(=O)CNC1=O [copper-64 labelled]	athymic nude mouse, female, whole blood	iv, 4 h	0.15 ± 0.07 %ID/g
